Experimental data from different studies.
Each line is one published result; not all experiments were run side by side. Numbers after ± are the reported error. Values after ≈ are worked out from the molar mass of the structure shown.

SMILES = O=C(Nc1ccccc1)C1CCN(C(=O)Oc2cccnc2)CC1; test system = human, serum; conditions = day 14; quantity = aspartate aminotransferase; result = 108 U/L
SMILES = Clc1ccc(Cl)c(-c2c(Cl)ccc(Cl)c2Cl)c1; test system = rat liver microsomes; conditions = 50 µM, 30 min, remaining parent PCB; quantity = enantiomeric fraction; result = 0.64
SMILES = CC(=O)N[C@H](CCCCNC(=O)C(C)F)C(=O)N[C@@H](CS)C(=O)N[C@@H](CS)C(=O)N[C@@H](CCC(=O)O)C(=O)N[C@@H](Cc1c[nH]cn1)C(=O)N[C@H](Cc1ccccc1)C(=O)N[C@@H](CCCNC(=N)N)C(=O)N[C@@H](Cc1c[nH]c2ccccc12)C(=O)N[C@@H](CS)C(=O)N[C@@H](CCCNC(=N)N)C(=O)N1CCC[C@H]1C(=O)N[C@H](C(N)=O)C(C)C (stereo partly drawn) [fluorine-18 labelled]; test system = C57BL/6 mice, male, B16-F10 tumour, intestine; conditions = intravenous, 1 h; quantity = tissue uptake; result = 0.99 ± 0.45 %ID/g
SMILES = CN[C@@](C)(C[18F])C(=O)O; test system = SCID mouse U87 xenograft; conditions = 15 min post injection; quantity = tumour uptake; result = 5.6 ± 0.7 %ID/g
SMILES = Cc1ccc(OS(=O)(=O)O)cc1; test system = human hemodialysis patients, plasma; conditions = pre-treatment; how to read = baseline: hemodialysis over normal subjects; quantity = total plasma concentration ratio; result = 11
SMILES = CC[C@H](C)[C@H](NC(=O)[C@H](CC(C)C)NC(=O)[C@H](Cc1c[nH]c2ccccc12)NC(=O)[C@H](CCC(N)=O)NC(=O)[C@@H](NC(=O)[C@H](Cc1ccccc1)NC(=O)[C@H](C)NC(=O)[C@H](CCCCNC(=O)COCCOCCNC(=O)COCCOCCNC(=O)CC[C@H](NC(=O)CCCCCCCCCCCCCCCCCCC(=O)O)C(=O)O)NC(=O)[C@H](CCC(N)=O)NC(=O)[C@H](C)NC(=O)[C@@H](NC(=O)[C@H](CCCCN)NC(=O)[C@H](CC(=O)O)NC(=O)[C@H](CC(C)C)NC(=O)C(C)(C)NC(=O)[C@@H](NC(=O)[C@H](CO)NC(=O)[C@H](Cc1ccc(O)cc1)NC(=O)[C@H](CC(=O)O)NC(=O)[C@H](CO)NC(=O)[C@@H](NC(=O)[C@H](Cc1ccccc1)NC(=O)[C@@H](NC(=O)CNC(=O)[C@H](CCC(=O)O)NC(=O)C(C)(C)NC(=O)[C@@H](N)Cc1ccc(O)cc1)[C@@H](C)O)[C@@H](C)O)[C@@H](C)CC)[C@@H](C)CC)C(C)C)C(=O)N[C@@H](C)C(=O)NCC(=O)NCC(=O)N1CCC[C@H]1C(=O)N[C@@H](CO)C(=O)N[C@@H](CO)C(=O)NCC(=O)N[C@@H](C)C(=O)N1CCC[C@H]1C(=O)N1CCC[C@H]1C(=O)N1CCC[C@H]1C(=O)N[C@@H](CO)C(N)=O; test system = human, severe renal impairment, plasma; conditions = subcutaneous, 5 mg single dose, geometric mean; quantity = CL/F; result = 1 mL/min
SMILES = CC(C)C[C@H](NC(=O)[C@H](CC(=O)O)NC(=O)CNC(=O)[C@H](CCCNC(=N)N)NC(=O)[C@H](CC(C)C)NC(=O)[C@H](CC(N)=O)NC(=O)[C@@H]1CCCN1C(=O)[C@@H](NC(=O)[C@H](C)NC(=O)[C@H](CC(N)=O)NC(=O)CCOCCOCCOCCOCCOCCOCCOCCOCCOCCOCCOCCOCCOCCOCCOCCOCCOCCOCCOCCOCCOCCOCCOCCOCCOCCOCCOCCOCCNC(=O)CN1CCN(CC(=O)O)CCN(CC(=O)O)CC1)C(C)C)C(=O)N[C@@H](CCC(N)=O)C(=O)N[C@H](C(=O)N[C@@H](CC(C)C)C(=O)N[C@@H](C)C(=O)N[C@@H](CCC(N)=O)C(=O)N[C@@H](CCCNC(=N)N)C(=O)N[C@H](C(=O)N[C@@H](C)C(=O)N[C@@H](CCCNC(=N)N)C(=O)N[C@H](C(=O)NCCOCCOCCOCCOCCOCCOCCOCCOCCOCCOCCOCCOCCOCCOCCOCCOCCOCCOCCOCCOCCOCCOCCOCCOCCOCCOCCOCCOCCC(N)=O)[C@@H](C)O)C(C)C)C(C)C [fluorine-18 labelled]; test system = female athymic nude mice, DX3puroβ6/DX3puro xenografts, muscle; conditions = intravenous, 0.175 nmol; quantity = tissue uptake; result = ≤ 0.9 %ID/g
SMILES = Cc1cnc(C(=O)N[C@H]2CCCCC/C=C\[C@@H]3C[C@@]3(C(=O)NS(=O)(=O)C3CC3)NC(=O)[C@@H]3C[C@@H](Oc4nc5ccccc5c5ccccc45)CN3C2=O)cn1; test system = healthy human volunteers, plasma; conditions = oral, dose not given, alone, digoxin interaction study; quantity = Cmax; result = 1210 ng/mL
SMILES = NC(=O)c1nc(F)c[nH]c1=O; test = UV-Vis spectrophotometry; test system = supercritical CO2; conditions = 120 min, 318 K, 24 MPa, 850.10 kg/m^3; quantity = solubility; result = 1300 µg/mL (≈ 8.29 mM)
SMILES = CC(C)C(=O)OC[C@H]1O[C@@H](n2ccc(NO)nc2=O)[C@H](O)[C@@H]1O; test = microdialysis; test system = pregnant rat, blood, fetus, placenta, amniotic fluid; conditions = iv, 100 mg/kg, together with: NBMPR 10 mg/kg; how to read = baseline: compound alone; quantity = AUC; result = no effect
SMILES = COc1ccc(-c2ccc3c(N4CCOC[C@@H]4C)nc(N4CCOC[C@@H]4C)nc3n2)cc1CO; test system = human patients; conditions = oral, dose not given, related adverse events; quantity = incidence of ALT increase; result = 22%
SMILES = [123I]c1cncc(OC[C@@H]2CCN2)c1; test = SPECT; test system = human, parietal lobe; conditions = intravenous bolus, 7.35 mCi; how to read = baseline: tissue over plasma; quantity = tissue/plasma ratio; result = 28.2

A few entries again:
SMILES = COc1ccc(-c2ccc3c(N4CCOC[C@@H]4C)nc(N4CCOC[C@@H]4C)nc3n2)cc1CO; test system = human patients; conditions = oral, dose not given, related adverse events; quantity = incidence of ALT increase; result = 22%
